{"data": "Assay results pooled from the literature", "cell line": "SK-OV-3", "note": "Protocols differ between the studies behind these lines."}
{"Compound": "O=C(Nc1nnc2c1c(-c1ccc(Cl)cc1)nc1sc(=Cc3ccco3)c(=O)n12)c1ccccc1 (mixture of isomers)", "assay": "SRB", "setting": "10 µM, NCI60 single-dose screen", "how to read": "relative to: untreated", "quantity": "cell growth", "value": "53.6%"}
{"Compound": "C=C(NC(=O)c1csc(-c2ccc(NC(=O)CCCCCBr)cc2)n1)C(=O)NC(=C)C(=O)OC", "assay": "cell growth or viability", "quantity": "EC50", "value": "2.2 µM"}
{"Compound": "Cc1nc2c(F)cc(-c3nc(Nc4ccc(CNC(=O)CCCC(=O)NO)cc4)ncc3F)cc2n1C(C)C", "assay": "cell growth or viability, CCK-8", "setting": "0.3 µM, 48 h", "quantity": "inhibition", "value": "76.5%"}
{"Compound": "C=C(NC(=O)c1csc(-c2cccnc2)n1)C(=O)NC(=C)C(=O)OC", "assay": "cell growth or viability", "quantity": "EC50", "value": "21 µM"}
{"Compound": "CCCc1cc2cc(-n3nc(C(F)(F)F)c4c3CC(C)(C)CC4=O)cc(N3CCC(O)CC3)c2c(=O)[nH]1", "assay": "cell growth or viability, MTS", "quantity": "IC50", "value": "3.47 µM"}
{"Compound": "Cc1nc2c(F)cc(-c3nc(Nc4ccc(CNC(=O)CCCCCCC(=O)NO)cc4)ncc3F)cc2n1C(C)C", "assay": "cell growth or viability, CCK-8", "setting": "0.3 µM, 48 h", "quantity": "inhibition", "value": "99.2%"}
{"Compound": "CCCc1cc2cc(-n3nc(N)c4c3CC(C)(C)CC4=O)cc(N3CCC(O)CC3)c2c(=O)[nH]1", "assay": "cell growth or viability, MTS", "quantity": "IC50", "value": "> 50 µM"}
{"Compound": "CCN(C(=O)c1cc(F)ccc1Oc1nncnc1N1CCC2(C1)CN([C@H](CCCN(C)CCOC)C(C)C)C2)C(C)C", "assay": "cell growth or viability", "setting": "72 h", "quantity": "GI50", "value": "> 10 µM"}
{"Compound": "C1=[N+]2CCCC[N+]3=Cc4ccc5[n]4[Au-]23[n]2c1ccc2-c1nc2ccccc2nc1-5.F[P-](F)(F)(F)(F)F", "assay": "NCI60 five-dose screen", "quantity": "TGI", "value": "4.06 -log M"}
{"Compound": "CCCc1cc2cc(-n3nc(C4CC4)c4c3CC(C)(C)CC4=O)cc(N3CCC(O)CC3)c2c(=O)[nH]1", "assay": "cell growth or viability, MTS", "quantity": "IC50", "value": "8.74 µM"}
